# Results pooled from the literature.
# Values joined by “and” are separate records of one study, mostly repeats; a detail may differ. Numbers after ± are the reported error.
# YAP1 WW1 domain: Transcriptional coactivator YAP1, WW1 domain (YAP1, Homo sapiens, UniProt P46937)
# CFTR del508-508: Cystic fibrosis transmembrane conductance regulator (CFTR, Homo sapiens, UniProt P13569, del508-508)
# Kelch domain-containing protein 2: Kelch domain-containing protein 2 (UniProt Q9Y2U9)
# Chain of UniProt Q9Y2U9 (whole entry, looked up): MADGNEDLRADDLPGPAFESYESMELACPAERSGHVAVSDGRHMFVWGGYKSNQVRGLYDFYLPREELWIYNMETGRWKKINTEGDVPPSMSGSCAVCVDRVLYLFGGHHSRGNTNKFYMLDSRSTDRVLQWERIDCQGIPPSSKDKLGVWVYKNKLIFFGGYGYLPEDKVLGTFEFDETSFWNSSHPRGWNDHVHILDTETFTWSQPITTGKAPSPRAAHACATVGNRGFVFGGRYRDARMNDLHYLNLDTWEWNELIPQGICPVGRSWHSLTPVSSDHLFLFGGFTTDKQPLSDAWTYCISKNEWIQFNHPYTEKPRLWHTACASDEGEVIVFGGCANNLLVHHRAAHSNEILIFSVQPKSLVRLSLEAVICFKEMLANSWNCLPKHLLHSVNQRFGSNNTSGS
# T1: RNA hairpin, hairpin (Homo sapiens); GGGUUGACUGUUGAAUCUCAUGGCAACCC
# T2: DNA aptamer, truncated, engineered stem; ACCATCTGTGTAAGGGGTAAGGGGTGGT
# Chain of UniProt Q9NZ08 (whole entry, unmodified, looked up): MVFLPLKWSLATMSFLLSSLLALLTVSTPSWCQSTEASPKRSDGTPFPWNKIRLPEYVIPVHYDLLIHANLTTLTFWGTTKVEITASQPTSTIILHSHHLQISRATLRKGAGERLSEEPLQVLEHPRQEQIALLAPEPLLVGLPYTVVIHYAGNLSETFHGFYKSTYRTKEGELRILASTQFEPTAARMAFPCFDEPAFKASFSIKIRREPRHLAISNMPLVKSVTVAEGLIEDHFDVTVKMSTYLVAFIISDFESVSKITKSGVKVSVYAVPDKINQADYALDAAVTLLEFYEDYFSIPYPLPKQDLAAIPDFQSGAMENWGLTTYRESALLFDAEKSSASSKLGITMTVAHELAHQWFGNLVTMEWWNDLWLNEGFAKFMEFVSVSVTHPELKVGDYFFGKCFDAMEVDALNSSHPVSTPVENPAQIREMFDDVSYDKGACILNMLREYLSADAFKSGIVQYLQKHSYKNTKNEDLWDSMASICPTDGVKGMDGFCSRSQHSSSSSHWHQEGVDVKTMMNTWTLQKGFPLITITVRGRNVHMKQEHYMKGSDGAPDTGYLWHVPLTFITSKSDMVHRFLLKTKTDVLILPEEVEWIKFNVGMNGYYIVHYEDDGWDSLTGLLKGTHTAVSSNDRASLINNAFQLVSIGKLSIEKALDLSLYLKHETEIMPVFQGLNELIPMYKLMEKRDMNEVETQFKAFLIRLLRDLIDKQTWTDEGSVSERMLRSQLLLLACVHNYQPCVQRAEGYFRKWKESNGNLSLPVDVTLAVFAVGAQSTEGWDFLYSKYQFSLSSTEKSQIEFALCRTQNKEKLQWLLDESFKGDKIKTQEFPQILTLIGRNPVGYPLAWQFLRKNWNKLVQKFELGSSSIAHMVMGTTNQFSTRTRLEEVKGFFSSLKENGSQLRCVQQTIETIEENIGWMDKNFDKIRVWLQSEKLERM
# Chain of UniProt P0A334 (whole entry, looked up): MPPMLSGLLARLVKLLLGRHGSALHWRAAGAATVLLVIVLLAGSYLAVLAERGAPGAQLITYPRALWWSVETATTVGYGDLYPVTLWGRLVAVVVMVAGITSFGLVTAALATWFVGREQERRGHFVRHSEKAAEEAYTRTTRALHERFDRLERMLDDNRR
# Chain of UniProt Q14432 (whole entry, looked up): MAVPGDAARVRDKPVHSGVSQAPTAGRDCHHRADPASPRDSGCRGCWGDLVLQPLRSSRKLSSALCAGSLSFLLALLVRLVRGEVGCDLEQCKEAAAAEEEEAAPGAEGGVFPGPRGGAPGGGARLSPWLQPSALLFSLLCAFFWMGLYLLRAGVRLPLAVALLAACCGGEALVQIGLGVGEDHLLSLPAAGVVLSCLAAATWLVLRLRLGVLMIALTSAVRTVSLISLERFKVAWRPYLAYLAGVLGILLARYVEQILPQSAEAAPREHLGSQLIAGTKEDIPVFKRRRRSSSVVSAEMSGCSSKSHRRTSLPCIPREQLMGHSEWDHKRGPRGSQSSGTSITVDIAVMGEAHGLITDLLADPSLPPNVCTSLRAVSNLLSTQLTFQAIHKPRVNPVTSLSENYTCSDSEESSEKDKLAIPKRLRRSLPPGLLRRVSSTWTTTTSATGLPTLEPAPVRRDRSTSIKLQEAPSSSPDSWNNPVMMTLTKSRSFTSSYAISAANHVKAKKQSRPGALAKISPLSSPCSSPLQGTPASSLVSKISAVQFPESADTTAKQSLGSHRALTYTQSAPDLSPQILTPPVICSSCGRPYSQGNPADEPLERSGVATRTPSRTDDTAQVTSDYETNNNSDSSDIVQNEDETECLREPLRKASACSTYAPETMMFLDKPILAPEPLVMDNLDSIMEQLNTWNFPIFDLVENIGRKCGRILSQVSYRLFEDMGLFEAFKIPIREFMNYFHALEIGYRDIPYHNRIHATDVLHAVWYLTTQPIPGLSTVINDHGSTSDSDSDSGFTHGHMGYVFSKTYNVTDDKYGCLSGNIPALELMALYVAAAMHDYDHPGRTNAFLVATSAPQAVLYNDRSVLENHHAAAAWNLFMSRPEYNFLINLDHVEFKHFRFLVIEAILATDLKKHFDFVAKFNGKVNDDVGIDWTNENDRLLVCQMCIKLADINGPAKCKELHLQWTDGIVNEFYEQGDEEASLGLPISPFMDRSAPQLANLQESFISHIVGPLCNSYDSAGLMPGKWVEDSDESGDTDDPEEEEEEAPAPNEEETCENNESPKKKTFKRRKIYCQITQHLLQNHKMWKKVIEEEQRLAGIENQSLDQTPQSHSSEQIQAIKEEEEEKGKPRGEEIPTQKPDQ
# Chain of UniProt P12081 (whole entry, unmodified, looked up): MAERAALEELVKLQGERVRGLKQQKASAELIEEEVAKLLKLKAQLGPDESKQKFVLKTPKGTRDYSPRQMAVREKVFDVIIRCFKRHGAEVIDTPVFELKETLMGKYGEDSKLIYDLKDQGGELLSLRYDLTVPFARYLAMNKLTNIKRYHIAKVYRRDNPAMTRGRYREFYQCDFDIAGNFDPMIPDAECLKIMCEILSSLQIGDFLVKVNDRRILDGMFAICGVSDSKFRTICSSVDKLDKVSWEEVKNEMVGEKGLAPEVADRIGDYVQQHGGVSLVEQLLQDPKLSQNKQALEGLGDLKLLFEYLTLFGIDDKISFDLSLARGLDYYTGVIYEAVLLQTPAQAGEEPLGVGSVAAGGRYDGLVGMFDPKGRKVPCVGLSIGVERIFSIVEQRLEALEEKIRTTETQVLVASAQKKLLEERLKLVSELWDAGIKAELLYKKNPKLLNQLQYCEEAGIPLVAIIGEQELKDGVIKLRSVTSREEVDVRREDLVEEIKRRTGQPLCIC
# Chain of UniProt P30405 (whole entry, unmodified, looked up): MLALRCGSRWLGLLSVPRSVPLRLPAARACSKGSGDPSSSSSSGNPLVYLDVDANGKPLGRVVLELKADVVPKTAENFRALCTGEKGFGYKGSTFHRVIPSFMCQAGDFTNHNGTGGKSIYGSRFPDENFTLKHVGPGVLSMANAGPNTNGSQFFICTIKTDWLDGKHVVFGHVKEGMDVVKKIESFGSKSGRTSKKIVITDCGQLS
# Chain of UniProt P03951 (whole entry, looked up): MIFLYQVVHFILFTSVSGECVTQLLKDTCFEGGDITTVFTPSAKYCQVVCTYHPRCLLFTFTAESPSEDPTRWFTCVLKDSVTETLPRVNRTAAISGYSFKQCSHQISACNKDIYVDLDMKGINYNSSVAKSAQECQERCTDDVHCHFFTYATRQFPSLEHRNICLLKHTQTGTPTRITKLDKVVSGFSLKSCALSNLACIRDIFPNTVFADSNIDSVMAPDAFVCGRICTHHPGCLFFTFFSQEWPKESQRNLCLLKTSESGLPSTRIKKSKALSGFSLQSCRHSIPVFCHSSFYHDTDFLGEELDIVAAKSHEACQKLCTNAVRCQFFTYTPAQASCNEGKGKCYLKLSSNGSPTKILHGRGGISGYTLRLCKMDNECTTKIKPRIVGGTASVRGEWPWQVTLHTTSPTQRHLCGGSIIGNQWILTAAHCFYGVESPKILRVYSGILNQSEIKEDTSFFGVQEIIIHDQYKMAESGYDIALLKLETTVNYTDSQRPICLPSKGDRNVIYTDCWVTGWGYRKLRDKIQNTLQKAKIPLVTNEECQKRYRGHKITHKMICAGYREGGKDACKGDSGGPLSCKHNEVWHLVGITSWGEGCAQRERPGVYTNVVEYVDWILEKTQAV
# Chain of UniProt P50225 (whole entry, looked up): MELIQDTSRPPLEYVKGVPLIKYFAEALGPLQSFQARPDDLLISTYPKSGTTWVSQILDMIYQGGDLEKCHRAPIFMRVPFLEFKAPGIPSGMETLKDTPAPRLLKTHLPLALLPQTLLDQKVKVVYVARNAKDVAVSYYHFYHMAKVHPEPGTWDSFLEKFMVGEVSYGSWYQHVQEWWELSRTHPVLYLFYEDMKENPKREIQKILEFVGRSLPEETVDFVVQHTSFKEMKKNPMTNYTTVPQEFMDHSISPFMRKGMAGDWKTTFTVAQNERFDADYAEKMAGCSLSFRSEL
Substance,target,test,system,conditions,how to read,endpoint,value
CC(C)C[C@H](NC(=O)[C@H](C)NC(=O)[C@@H](N)[C@@H](C)O)C(=O)N1CCC[C@H]1C(=O)N1CCC[C@H]1C(=O)N1CCC[C@H]1C(=O)N1CCC[C@H]1C(=O)N[C@@H](Cc1ccc(O)cc1)C(=O)N[C@@H](CCCNC(=N)N)C(=O)N[C@@H](Cc1c[nH]cn1)C(=O)N[C@@H](CCCNC(=N)N)C(=O)N[C@@H](CC(N)=O)C(=O)O,YAP1 WW1 domain,"binding, ITC",,"pH 7.0, 25 °C, WW1 domain",,ΔH,-16.9 ± 0.64 kcal/mol
Cc1cc(C)c2cc(C#N)c(N3CCN(C(=O)c4cccnc4)CC3)nc2c1,CFTR del508-508,"ΔF508-CFTR correction, corrector",FRT,"up to 25 µM, 37 °C, together with: forskolin 20 µM + genistein 50 µM",,EC50,inactive
Nc1ncnc2c1ncn2[C@@H]1O[C@H](COP(=O)(O)OP(=O)(O)OP(=O)(O)O)[C@@H](O)[C@H]1O,"HARS1 (Homo sapiens, UniProt P12081, V155G)","thermal stability, DSF",,,,ΔTm,3.04 °C
OC(CNc1ccccc1)Cn1c2ccc(Br)cc2c2cc(Br)ccc21 (centres unmarked),"T1, RNA hairpin, hairpin (Homo sapiens)",differential scanning fluorimetry,,"30 µM, together with: RNA 2 µM",higher = more stabilisation,change in melting temperature,-5.5 °C
GGGSGGG,Kelch domain-containing protein 2,native mass spectrometry,"peptide, 200 mM ammonium acetate","20 µM Kelch domain-containing protein 2, pH 7",relative to: total Kelch domain-containing protein 2 signal,fraction of protein bound,4.5%
O=[N+]([O-])c1ccc(OS(=O)(=O)O)cc1,"SULT1A1 (Homo sapiens, UniProt P50225)","sulfation, substrate inhibition",,"pH 6.2, 37 °C, competitive versus PAP, together with: PAP 5 to 20 µM",,Ki,25000 ± 4000 µM
IINFEKL,"ERAP1 (Homo sapiens, UniProt Q9NZ08, V737R)","L-AMC hydrolysis, activator",peptide,"100 µM, 5 min, pH 8.0, 27 °C, mutant V737R, together with: L-AMC varied from 0 µM",,Vmax,107 ± 1 nmol/min/µg
VIVFGG,Kelch domain-containing protein 2,native mass spectrometry,"peptide, 200 mM ammonium acetate","20 µM Kelch domain-containing protein 2, pH 7",relative to: total Kelch domain-containing protein 2 signal,fraction of protein bound,5.4%
CSc1ccc(/C=C2/C(C)=C(CC(=O)O)c3cc(F)ccc32)cc1,"PDE3A (Homo sapiens, UniProt Q14432)","cAMP hydrolysis, inhibitor, IMAP fluorescence polarization",,up to 200 µM,,IC50,inactive
O=S(=O)(c1ccccc1OCC(F)(F)F)N1CC(c2nc(-c3ccc(F)cc3)no2)C1,"KCNT1 (Homo sapiens, UniProt Q5JUK3)","ion current, activator, automated patch clamp",CHO,30 µM,relative to: bepridil 60 µM,efficacy,100%
CC(C)C[C@H](NC(=O)[C@@H](NC(=O)[C@@H](N)[C@@H](C)O)C(C)C)C(=O)N1CCC[C@H]1C(=O)N1CCC[C@H]1C(=O)N1CCC[C@H]1C(=O)N1CCC[C@H]1C(=O)N[C@@H](Cc1ccc(O)cc1)C(=O)N[C@@H](CCCNC(=N)N)C(=O)N[C@@H](Cc1c[nH]cn1)C(=O)N[C@@H](C)C(=O)N[C@@H](CC(N)=O)C(=O)O,YAP1 WW1 domain,"binding, ITC",,"pH 7.0, 25 °C, WW1 domain",,ΔG,-6.08 ± 0.06 kcal/mol
NS(=O)(=O)c1ccc(N2N=C(C(F)(F)F)C[C@H]2c2ccc(F)cc2F)cc1,"Prostaglandin G/H synthase 1 (Canis lupus familiaris, UniProt Q8HZR1)","TXB2 formation, inhibitor",clotting dog whole blood,"1 h, 37 °C",,IC80,169 µM
Nc1ncnc2c1ncn2[C@@H]1O[C@H](COP(=O)(O)OP(=O)(O)OP(=O)(O)O)[C@@H](O)[C@H]1O,"ATP1A1 (Canis lupus familiaris, UniProt P50997)",dissociation from E1 state,dog,"4 °C, together with: 200 mM Na+, NMG+ replacement, total 500 mM",,koff,0.85 ± 0.24 s⁻¹
IINFEKE,"ERAP1 (Homo sapiens, UniProt Q9NZ08, L733R)","L-AMC hydrolysis, activator",peptide,"100 µM, 5 min, pH 8.0, 27 °C, mutant L733R, together with: L-AMC varied from 0 µM",,Vmax,56 ± 1 nmol/min/µg
CC[C@H](C)[C@H](NC(=O)[C@H](CC(C)C)NC(=O)[C@H](CC(C)C)NC(=O)CNC(=O)[C@H](Cc1ccc(O)cc1)NC(=O)[C@H](CCCNC(=N)N)NC(=O)[C@H](CO)NC(C)=O)C(=O)N[C@@H](CCCCN)C(=O)N[C@@H](C)C(=O)N[C@@H](Cc1ccccc1)C(=O)N[C@@H](CO)C(=O)N[C@@H](CCSC)C(=O)N[C@H](C(=O)N[C@@H](C)C(=O)N[C@@H](C)C(=O)N[C@@H](CCC(=O)O)C(=O)N[C@H](C(=O)N[C@@H](C)C(=O)N[C@@H](CCCNC(=N)N)C(=O)N[C@@H](CCCNC(=N)N)C(=O)N[C@H](C(=O)N[C@@H](CCCNC(=N)N)C(=O)N[C@@H](CCC(=O)O)C(=O)N[C@@H](Cc1ccccc1)C(=O)N[C@@H](CCCNC(=N)N)C(N)=O)[C@@H](C)O)[C@@H](C)O)[C@@H](C)O,calmodulin 1-148 sites III and IV,"calcium binding, Tyr fluorescence titration",,"12 µM, pH 7.4, 22 °C, together with: 6 µM calmodulin",,apparent ΔG2,-16.1 ± 0.23 kcal/mol
Nc1ccc(CNC(=O)CN2C(=O)C3C4CCC(C4)C3C2=O)cc1 (centres unmarked),"PPIF (Homo sapiens, UniProt P30405, K175I)","binding, surface plasmon resonance",,,relative to: fragment Kd over compound Kd,potency gain,> 1000 fold
CN(C)N=Nc1[nH]cnc1C(N)=O,"T2, DNA aptamer, truncated, engineered stem",electrochemical aptamer sensor,,1 mM,,binding,no binding
Oc1ccc(/C=C/c2ccc3ccccc3c2)cc1O,"Transthyretin, fibrils (TTR, Homo sapiens, UniProt P02766)","binding, fluorescence emission",,"1 µM, pH 3.0, together with: 5 µM fibrils (monomer)",relative to: free compound,fluorescence increase,3.1 fold
CSCC[C@H](NC(=O)[C@@H]1CCCN1C(=O)[C@@H](NC(=O)[C@H](Cc1ccc(O)cc1)NC(=O)[C@H](C)NC(=O)[C@@H]1CCCN1C(=O)[C@@H]1CCCN1C(=O)[C@@H]1CCCN1C(=O)[C@H](CO)NC(=O)[C@H](Cc1c[nH]cn1)NC(=O)CN)[C@@H](C)O)C(=O)N[C@@H](CO)C(=O)O,YAP1 WW1 domain,"binding, ITC",,"pH 7.0, 25 °C, WW1 domain",,ΔH,-2.94 ± 0.17 kcal/mol
C=CC(=O)Nc1ccccc1Nc1nc(Nc2ccc(N3CCN(C)CC3)cc2)ncc1Cl,"SRC (Homo sapiens, UniProt P12931)","probe binding, inhibitor, chemoproteomic competition",NCI-H23 KRAS G12C,"100 nM, 2 h, together with: 2 µM desthiobiotin probe",,labelling,> 50%
CCCCCCCC/C=C\CCCCCCCC(=O)OC[C@H](COP(=O)(O)OCC(O)COP(=O)(O)OC[C@@H](COC(=O)CCCCCCC/C=C\CCCCCCCC)OC(=O)CCCCCCC/C=C\CCCCCCCC)OC(=O)CCCCCCC/C=C\CCCCCCCC (some centres unmarked),"kcsA (Streptomyces lividans, UniProt P0A334)","channel opening, activator, contact bubble bilayer",POPC bilayer,"25 wt%, pH 4 inside, 7.5 outside, 100 mV",,open probability,30%
C/C=C1\CN2CCC34CC5C6CC7c8c(c9ccccc9n8C)CC(C6COC5(C)OC35C2CC1C(C(=O)OC)N5c1ccccc14)N7C (centres unmarked),"RELA (Homo sapiens, UniProt Q04206)","DNA binding, inhibitor, ELISA",HeLa nuclear extract,,,ED50,> 20 µM
COc1ccc(Cl)cc1Nc1nc2c(s1)CCCc1nc(NC(=O)c3ccno3)sc1-2,CFTR del508-508,"iodide influx, corrector, YFP halide quenching",FRT cells expressing YFP-H148Q/I152L,"16 to 20 h, 37 °C, genistein 50 µM, together with: forskolin 20 µM",,Vmax,505 µM/s
IKPAKRMKFKTVCYLLVQLMHCRKMFKA,"Calmodulin-1 (Calm1, Rattus norvegicus, UniProt P0DP29, D130A/D94A)","Ca2+ dissociation, stopped-flow quin-2 fluorescence",peptide,"2 µM, pH 7.4, 22 °C, together with: Ca2+-calmodulin complex",,koff2,5.6 s⁻¹ and 5.55 s⁻¹
CC(C)[C@H](NC(=O)[C@@H](N)[C@@H](C)O)C(=O)N[C@@H](C)C(=O)N1CCC[C@H]1C(=O)N1CCC[C@H]1C(=O)N1CCC[C@H]1C(=O)N1CCC[C@H]1C(=O)N[C@@H](Cc1ccc(O)cc1)C(=O)N[C@@H](CCCNC(=N)N)C(=O)N[C@@H](Cc1c[nH]cn1)C(=O)N[C@@H](CCCNC(=N)N)C(=O)N[C@@H](CC(N)=O)C(=O)O,"Transcriptional coactivator YAP1, WW2 domain (YAP1, Homo sapiens, UniProt P46937)","binding, ITC",,"pH 7.0, 25 °C, WW2 domain",,TΔS,-7.47 ± 0.09 kcal/mol
Nc1ccc(-c2nc([C@H]3CCc4cc(-c5cc(Cl)ccc5-n5cnnn5)cc(=O)n43)c(F)[nH]2)c(F)n1,"F11 (Homo sapiens, UniProt P03951)",,"human, blood","oral, 250 mg once daily, fed, day 14, 24 h",,FXI activity inhibition,86 ± 5.3%

# For quick reference, copied from above:
Substance,target,test,system,conditions,how to read,endpoint,value
NS(=O)(=O)c1ccc(N2N=C(C(F)(F)F)C[C@H]2c2ccc(F)cc2F)cc1,"Prostaglandin G/H synthase 1 (Canis lupus familiaris, UniProt Q8HZR1)","TXB2 formation, inhibitor",clotting dog whole blood,"1 h, 37 °C",,IC80,169 µM
Nc1ncnc2c1ncn2[C@@H]1O[C@H](COP(=O)(O)OP(=O)(O)OP(=O)(O)O)[C@@H](O)[C@H]1O,"ATP1A1 (Canis lupus familiaris, UniProt P50997)",dissociation from E1 state,dog,"4 °C, together with: 200 mM Na+, NMG+ replacement, total 500 mM",,koff,0.85 ± 0.24 s⁻¹
IINFEKE,"ERAP1 (Homo sapiens, UniProt Q9NZ08, L733R)","L-AMC hydrolysis, activator",peptide,"100 µM, 5 min, pH 8.0, 27 °C, mutant L733R, together with: L-AMC varied from 0 µM",,Vmax,56 ± 1 nmol/min/µg
